Results gathered from unrelated publications.
Parts stem from different laboratories: compare values within a part only. Changes are numbered by the printed parent chain.

Study 1
Target: ABI1, truncated, D143A, DHFR fusion (Arabidopsis thaliana)
Method: DHFR PCA, deep sequencing
Medium: yeast
Notes: methotrexate growth selection, single substitutions
With: (+)-ABA 200 µM
Reference: wild-type fitted maximum
Direction: higher = stronger binding
Starting sequence: PYL1, truncated, DHFR fusion (Arabidopsis thaliana); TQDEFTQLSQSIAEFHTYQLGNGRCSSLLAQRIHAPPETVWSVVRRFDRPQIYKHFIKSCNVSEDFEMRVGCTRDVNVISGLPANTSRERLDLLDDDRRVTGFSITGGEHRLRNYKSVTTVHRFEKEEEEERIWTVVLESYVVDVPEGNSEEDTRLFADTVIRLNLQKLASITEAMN; partner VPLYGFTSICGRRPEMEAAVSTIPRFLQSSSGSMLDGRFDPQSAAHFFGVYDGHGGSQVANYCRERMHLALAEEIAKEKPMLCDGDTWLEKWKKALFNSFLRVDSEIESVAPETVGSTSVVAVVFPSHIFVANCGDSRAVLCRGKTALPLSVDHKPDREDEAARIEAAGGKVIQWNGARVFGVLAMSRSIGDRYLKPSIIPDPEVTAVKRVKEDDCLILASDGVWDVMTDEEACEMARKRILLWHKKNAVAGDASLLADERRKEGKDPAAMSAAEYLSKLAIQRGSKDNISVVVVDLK
`R163E` — result for “relative binding score”: 72.4%.
For `N61K`, “relative binding score” read 110%.
For `Y53I`, “relative binding score” read 43.5%.
Under “relative binding score”, `F103E` is recorded as -2.82%.
`K58Y` — result for “relative binding score”: 89.8%.
`F124E`: “relative binding score” 101%.
For `P50V`, “relative binding score” read 55%.
Under “relative binding score”, `L93F` is recorded as 96.9%.
For `C25I`, “relative binding score” read 93.6%.
`V136Q`: “relative binding score” 61.8%.
For `R99S`, “relative binding score” read 69.2%.
`P146A` — result for “relative binding score”: 87%.
`I33N`: “relative binding score” -18.7%.
For `L93D`, “relative binding score” read 57.6%.
`S140A`: “relative binding score” 5.03%.
`S26G` — result for “relative binding score”: 96%.

Study 2
Target: RNA binding protein fox-1 homolog 2, RRM domain, GST-SBP tag (RBFOX2, Homo sapiens, UniProt O43251-10, residues 100-194)
Method: RNA Bind-n-Seq
Form: RNA
Medium: in vitro
Tested at: 365 nM
Notes: natural RNA segment, single round, ends assumed
Reference: no-protein control
Direction: higher = stronger binding
Constant ends, left off below: GGGAGUUCUACAGUCCGACGAUC … UGGAAUUCUCGGGUGCCAA
Residues (chain): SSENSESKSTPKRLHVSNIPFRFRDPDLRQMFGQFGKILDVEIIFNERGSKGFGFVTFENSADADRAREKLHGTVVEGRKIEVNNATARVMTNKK
For `UCUAGAGUUAGGAAUGAGUGUUUAUGGUGUUGCUUAUAGAACAACUCAGGUAAUCUCCAUUUCUGGUUUUAUAUUUUCUGUACAAACUGCCUGGGUUUUAUUUUUCUAAU`, “RBNS enrichment (R)” read 0.659.
`CUCAUGUAACGGUGGUACAUAAUAUCAAAUCAAAAGUUAUCUGUGACUAUAUAUAGGGAUCACAAAGUGUCACAUGUUAGAAUGCUGACCUUCCACAUGGGGUUAUUGUG`: “RBNS enrichment (R)” 0.362.
Under “RBNS enrichment (R)”, `CCAGCCAUAGAAGCAGAGCUGAACAGUAUCACAUAGCGAUUCAUGGUCACUCGCAACCUGAGUUCACCACAGCGGGAAUAGCUGUGAGAAACACAAGCAAAACAACAAAA` is recorded as 0.244.
Under “RBNS enrichment (R)”, `UUAGGACGAACUGAAACGGUACAAACUGGUUAACACUACAGCGCCUUUUGCACAAAUGCUUUAGAUUGUAUGGUCUACACUCAGGAAGACACUAGGUCACCCAGGCAAAG` is recorded as 0.35.
`GACACCACAGAGGAAGCCACCCCAGUUCAGGAGGUAGAGGGUGGCAUGCUAGAUACGGAAGAACAGGAGCGCCAGACGCAGGCCGUCCUCCAAGCCGUUGCAGACAAAGU`: “RBNS enrichment (R)” 0.993.
Under “RBNS enrichment (R)”, `ACGGAAGUUGACGCUCAAACUCCUCCCCAAAGUGCCUGGACUUUCAUGAACCUAGAGAUGCUAUCGGUGACAUCCGCCGUUGUGUUGUUCUUUUGCAGCCGUCUGGGCCG` is recorded as 0.372.
`AAGACUAAUGUUAAUUGUUCUUAAAACUGGAUUUUUUUUCCUUAAAGCAAUUUUUUUCUUUUCGAUUUAAUGAAGUAUUGCUAGCUGAAGCCAGUUUGACAUAGAGAGAU` — result for “RBNS enrichment (R)”: 0.504.
For `GCUGAGCAAGUCUGUAAACUGAUUCUGGGAGAAACCAAGCUGCUGGCCAUAGGGUGUCCUUGGGUACAUCCAGGAGUCUUCAUUGCUUCUGUUAUUACCCCGUCUCCUCU`, “RBNS enrichment (R)” read 0.278.
Under “RBNS enrichment (R)”, `GAAAUGAGGUUGAGAUGUUUUUCAAGGCUAACUUCAUGGACUCACUCUGUUUAGUGACUUAAUUGUAUCCCACCAAUUACUGCUGGUGACUUACUCACCCUUGUACAGUG` is recorded as 0.457.
Under “RBNS enrichment (R)”, `UUCAUAAUGAGAUAUAUGUAAUGGAUAGUACAAAGUUUGGAGACUCAACAAAUGCUCUAACCUUCUAGAGACAAAAGUCCUAUUUCUGUUUUCUUUUGUCUUUUUAUUUU` is recorded as 0.427.
`GCACUUUUGAACAGUCCCACAGUGCACAGGCCAUUUGAAGGAUGUAGAUGGCAGCCCUGGGCUGUCUCUGCUAUGGGGUGACCUUUCUACCUCCACACAAGACCCUGUUG` — result for “RBNS enrichment (R)”: 0.223.
`GGAUUUCUGUAGAGCUUGGCAGUUUCUGGCUCAUUUCUCUUGAGCACCGCACUAUUCUUGCCAUAGAGAGAGCCCAGGAGCCAACGCUGAAUCAGGUGCCCGGAGUCUUU` — result for “RBNS enrichment (R)”: 0.706.

Study 3
Target: CCND2, cyclin fold, Cln2 fusion (human)
Method: yeast growth competition, sequencing
Medium: yeast
Notes: weak parent motif
Reference: not given
Direction: higher = stronger binding
Starting sequence: PKN2 docking peptide (human); VSAVQKLDFSDTM; partner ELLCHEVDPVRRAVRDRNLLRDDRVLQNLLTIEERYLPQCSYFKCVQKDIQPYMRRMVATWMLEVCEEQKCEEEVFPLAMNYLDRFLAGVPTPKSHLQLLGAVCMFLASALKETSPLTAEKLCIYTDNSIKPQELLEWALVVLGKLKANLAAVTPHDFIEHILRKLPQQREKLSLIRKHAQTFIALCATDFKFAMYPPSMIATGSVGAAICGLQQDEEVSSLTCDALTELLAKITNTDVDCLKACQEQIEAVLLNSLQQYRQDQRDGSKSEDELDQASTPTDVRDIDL
Under “normalised enrichment score”, `V4S` is recorded as -0.276.
For `S2F`, “normalised enrichment score” read 0.293.
`D11P`: “normalised enrichment score” 0.665.
`D11F`: “normalised enrichment score” 0.282.
Under “normalised enrichment score”, `F9M` is recorded as 0.0287.
`D11C`: “normalised enrichment score” 0.85.
`V4H`: “normalised enrichment score” 0.189.
For `K6F`, “normalised enrichment score” read 0.0987.
Under “normalised enrichment score”, `A3Y` is recorded as 0.0557.
`D11K` — result for “normalised enrichment score”: 0.463.
`T12C` — result for “normalised enrichment score”: 0.715.
For `V1M`, “normalised enrichment score” read 0.43.
`V1K` — result for “normalised enrichment score”: 0.604.
`A3C`: “normalised enrichment score” 0.33.
`M13H` — result for “normalised enrichment score”: 0.593.
`D11H` — result for “normalised enrichment score”: 0.427.
Under “normalised enrichment score”, `V1C` is recorded as 0.93.
For `L7D`, “normalised enrichment score” read -0.135.
For `D11E`, “normalised enrichment score” read 0.851.
`A3T`: “normalised enrichment score” 0.47.
`D11Q`: “normalised enrichment score” 0.208.
`M13E` — result for “normalised enrichment score”: 0.586.
Under “normalised enrichment score”, `L7M` is recorded as 0.0745.
`D8I` — result for “normalised enrichment score”: 0.43.
Under “normalised enrichment score”, `V4F` is recorded as 0.215.

Study 4
Target: RING finger protein unkempt homolog, zinc fingers 1-6, GST-SBP tag (UNK, Homo sapiens, UniProt Q9C0B0, residues 30-357)
Method: RNA Bind-n-Seq
Form: RNA
Medium: in vitro
Tested at: not given
Notes: RNA with constant flanks, human and mouse sites, ends assumed
Reference: input RNA pool
Direction: higher = stronger binding
Constant ends, left off below: GGGAGUUCUACAGUCCGACGAUC … CAACAGAGGAUUGAGCAUCA
Construct (chain): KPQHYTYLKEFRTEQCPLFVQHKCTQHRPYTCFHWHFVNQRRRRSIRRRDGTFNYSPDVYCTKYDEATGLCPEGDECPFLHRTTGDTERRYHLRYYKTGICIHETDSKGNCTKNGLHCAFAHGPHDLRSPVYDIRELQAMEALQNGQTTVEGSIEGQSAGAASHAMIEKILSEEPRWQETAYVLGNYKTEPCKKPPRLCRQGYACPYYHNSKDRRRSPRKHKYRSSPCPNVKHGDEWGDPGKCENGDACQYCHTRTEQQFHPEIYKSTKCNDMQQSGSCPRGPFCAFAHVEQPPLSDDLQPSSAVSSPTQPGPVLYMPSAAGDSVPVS
With `GGGAACUCCACUCGGGGAACUCCUUUCCAAGCUGACCUCAGUUUUCUCACAAGAACCCAGUUAGCUGAUGUUUUAUUGUAAUUGUCUUAAUUUGCUAAGAACAAGUAAUAAGUAAAUUUU` the bound/input enrichment was 0.94 ratio.
With `GGAAUCAUCGGGGGUAAAGAAGCGGCGGAUACCCCGUUUUGAGGAGGUAGAAGAGGAGCCAGAGGUGAUCCCUGGACCUCCAUCAGAAAGCCCUGGCAUGCUAACAAAGCUCCAGAUCAA` the bound/input enrichment was 0.145 ratio.
For `CCUCUUCUGGCCUGUCUGCUUGGCAAUGACAUCACUCCAGAGAGCAUGUUUGAAAGCUUUCGGUACAAGUGCUUGUCAUCCUAUGCUUCUGUGAAAGAGAAUGCUGGCAAAAAAGGAAAU`, the bound/input enrichment was 0.133 ratio.
The bound/input enrichment of `GAGCGAGAUGGUGCUGUCAAGGCUAUGGAAGAAAUGAAUGGCAAAGACUUGGAGGGAGAAAAUAUUGAAAUUGUUUUUGCCAAGCCACCAGAUCAGAAAAGGAAAGAAAGAAAAGCUCAG` is reported as 0.384 ratio.
With `GAUCUUGGACUGGACAUUGGUGCCCAGGGAGAAGCCCUUGGAUAUCGCCAGGAUGAUCCCAGCUACCGUUCUUUUCACUCUGGUGGAUACGGCCAGGAUGCCUUGGGGAUGGACCCUAUG` the bound/input enrichment was 0.0939 ratio.
`AUAACAAUUGAUGUUUGUUUUCUGUUUGAUUUUAAACAGAGAAAAAAUAAAAGGGGGUAAUAGCUCCUUUUUUCUUCUUUCUUUUUUUUUUUCAUUUCAAAAUUGCUGCCAGUGUUUUCA` gave a bound/input enrichment of 0.744 ratio.
With `ACACAUCCUACCUUUGAUGAGUCUCACAUCCCACCUUCCUAUAAACAGCUAAAUUAAUUUUGUUUCAUCUUCCCCAGACCAAAAUGUUUGAUAAUCUUAUCAACAUUGUGGGAGGUCUUG` the bound/input enrichment was 0.225 ratio.
For `AGAGAAAUCCUGUCAGAUGACAAGCAUGACUGGGAGCAGAGAGUAAAUGCUCUAAAAAAGAUUAGAUCGUUACUCUUGGCUGGGGCUGCUGAGUACGAUAACUUCUUUCAACACUUGCGU`, the bound/input enrichment was 0.114 ratio.
For `UAUCCAAAUCUAAACAUGAUUGAGACAUUUAUUUGUCAAGUGUGUGAGGAGACACUUUCACAUAGCGUGAAUUCCCCUGAACAGCUAACUGGAAUGAGGAUGCUUAGACAUCUCACUAUA`, the bound/input enrichment was 0.176 ratio.
`AUUAAAAAUGCCUGUUUACAAACGUCUUCCCUUGCUGUCCGUGUGAAUUCAUUAGUGUGCUUAGGGAAGAUCCUGGAGUACCUGGAUAAGUGGUUUGUGCUUGAUGAUAUCCUACCCUUC` gave a bound/input enrichment of 0.113 ratio.
For `AAAAUCUCUGAUGACCUGAUGCAGAAGAUCAGCACUCAGAACCGCCGAGCCCUGGACCUCGUAGCUGCCAAGUGUUACUAUUAUCACGCCCGGGUCUAUGAGUUCCUGGACAAGCUGGAU`, the bound/input enrichment was 0.141 ratio.

Study 5
Target: ATF5, bZIP domain (human)
Method: DHFR protein complementation
Medium: yeast
Notes: single substitutions, most at no-binding floor
Reference: wild-type JUN-FOS pair
Direction: higher = stronger binding
Starting sequence: JUN, bZIP domain (human); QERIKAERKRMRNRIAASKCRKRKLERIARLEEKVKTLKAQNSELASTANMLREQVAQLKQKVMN; partner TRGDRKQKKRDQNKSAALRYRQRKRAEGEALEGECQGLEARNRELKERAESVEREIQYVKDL
`V35R` gave a binding fitness of -1.43 natural log.
For `Q55H`, the binding fitness was -1.19 natural log.
`A29C` has a binding fitness of -1.34 natural log.
`I28A` has a binding fitness of -1.55 natural log.
`L45Y` has a binding fitness of -1.47 natural log.
`E33F` gave a binding fitness of -1.42 natural log.
For `A57P`, the binding fitness was -1.51 natural log.
For `V35Y`, the binding fitness was -1.59 natural log.
With `I28W` the binding fitness was -1.23 natural log.
The binding fitness of `Q41S` is reported as -1.6 natural log.
For `L31G`, the binding fitness was -1.51 natural log.
